Experimental data collected from several papers.
A part holds a random share of what one study measured. Several values in a cell are separate wells, animals, samples, runs or records.
Sequence of UniProt O43353 (whole entry, looked up): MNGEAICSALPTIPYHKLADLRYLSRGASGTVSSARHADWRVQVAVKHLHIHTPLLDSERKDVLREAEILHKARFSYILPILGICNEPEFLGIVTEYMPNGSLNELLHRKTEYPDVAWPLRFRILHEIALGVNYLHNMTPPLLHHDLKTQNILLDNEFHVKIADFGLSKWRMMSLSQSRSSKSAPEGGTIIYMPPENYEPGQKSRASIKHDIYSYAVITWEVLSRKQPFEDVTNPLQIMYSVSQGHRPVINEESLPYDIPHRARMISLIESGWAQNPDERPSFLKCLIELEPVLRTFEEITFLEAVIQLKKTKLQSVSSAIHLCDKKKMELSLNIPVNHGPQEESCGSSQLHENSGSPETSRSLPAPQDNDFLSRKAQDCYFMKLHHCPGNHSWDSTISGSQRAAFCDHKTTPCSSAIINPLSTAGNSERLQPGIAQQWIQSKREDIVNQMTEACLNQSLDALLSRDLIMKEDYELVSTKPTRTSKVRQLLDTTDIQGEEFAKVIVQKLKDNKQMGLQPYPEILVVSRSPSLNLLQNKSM
Sequence of UniProt O15197 (whole entry, looked up): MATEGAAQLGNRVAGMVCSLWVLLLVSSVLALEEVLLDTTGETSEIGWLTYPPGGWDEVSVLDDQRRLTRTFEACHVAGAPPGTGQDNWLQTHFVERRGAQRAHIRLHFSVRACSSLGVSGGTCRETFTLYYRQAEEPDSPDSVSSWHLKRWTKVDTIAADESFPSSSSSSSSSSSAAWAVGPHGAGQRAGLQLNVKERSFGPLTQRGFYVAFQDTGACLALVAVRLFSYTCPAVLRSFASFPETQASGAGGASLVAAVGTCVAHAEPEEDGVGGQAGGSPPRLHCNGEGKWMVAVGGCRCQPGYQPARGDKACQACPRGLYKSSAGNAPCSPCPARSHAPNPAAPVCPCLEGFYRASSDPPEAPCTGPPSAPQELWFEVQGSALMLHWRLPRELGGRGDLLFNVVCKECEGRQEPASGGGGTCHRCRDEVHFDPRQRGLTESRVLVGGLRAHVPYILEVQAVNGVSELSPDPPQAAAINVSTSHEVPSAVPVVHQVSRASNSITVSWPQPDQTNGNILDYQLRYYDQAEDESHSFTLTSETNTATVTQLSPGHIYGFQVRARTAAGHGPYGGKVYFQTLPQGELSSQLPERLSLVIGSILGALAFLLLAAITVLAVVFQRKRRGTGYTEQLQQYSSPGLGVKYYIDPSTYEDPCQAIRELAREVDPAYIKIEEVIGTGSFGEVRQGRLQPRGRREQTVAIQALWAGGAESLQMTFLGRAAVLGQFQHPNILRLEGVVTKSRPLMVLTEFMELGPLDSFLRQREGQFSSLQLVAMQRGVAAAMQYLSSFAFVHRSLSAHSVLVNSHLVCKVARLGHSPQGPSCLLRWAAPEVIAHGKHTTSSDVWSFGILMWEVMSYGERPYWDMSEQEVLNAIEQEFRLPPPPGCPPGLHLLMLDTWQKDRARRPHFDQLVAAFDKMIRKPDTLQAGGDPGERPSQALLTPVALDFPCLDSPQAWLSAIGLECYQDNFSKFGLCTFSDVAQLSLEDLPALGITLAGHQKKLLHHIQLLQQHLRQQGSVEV
Sequence of UniProt Q8NFD2 (whole entry, looked up): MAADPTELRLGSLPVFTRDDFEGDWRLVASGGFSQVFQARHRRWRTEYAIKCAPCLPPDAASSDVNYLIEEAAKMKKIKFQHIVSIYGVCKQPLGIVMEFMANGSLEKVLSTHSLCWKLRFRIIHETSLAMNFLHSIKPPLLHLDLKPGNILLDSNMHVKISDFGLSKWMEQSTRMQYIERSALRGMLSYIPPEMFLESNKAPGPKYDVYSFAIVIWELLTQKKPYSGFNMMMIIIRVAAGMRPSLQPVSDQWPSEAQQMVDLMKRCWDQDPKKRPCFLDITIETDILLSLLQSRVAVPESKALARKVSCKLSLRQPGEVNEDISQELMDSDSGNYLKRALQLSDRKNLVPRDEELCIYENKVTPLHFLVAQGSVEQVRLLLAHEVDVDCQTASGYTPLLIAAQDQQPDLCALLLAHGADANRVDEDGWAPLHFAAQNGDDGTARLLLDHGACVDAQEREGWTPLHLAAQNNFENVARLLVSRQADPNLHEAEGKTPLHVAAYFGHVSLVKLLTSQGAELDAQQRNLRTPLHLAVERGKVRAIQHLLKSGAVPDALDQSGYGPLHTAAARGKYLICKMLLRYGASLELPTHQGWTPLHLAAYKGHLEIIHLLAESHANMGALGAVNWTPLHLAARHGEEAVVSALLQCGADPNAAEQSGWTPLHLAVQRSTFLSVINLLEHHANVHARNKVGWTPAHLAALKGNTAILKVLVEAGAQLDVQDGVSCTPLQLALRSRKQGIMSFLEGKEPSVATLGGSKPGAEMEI

Series 1 — host: mouse; medium: microsomes or S9; tested at: 2 µM; time: 0.5 h
SMILES	remaining compound [%]
O=C(NCCc1nccs1)c1cc(-c2ccc(Br)s2)n[nH]1	45.4
Cc1ccc(-c2cc(NC(=O)c3oc4ccc(F)cc4c3C)on2)cc1	66.7
CC(C)(C)c1ccc(Cn2ncc3ccccc32)cc1	0.00805
CCC1CN(C(=O)c2cc(S(=O)(=O)N3CCOCC3)cn2C)c2cc(Cl)ccc2O1 (stereo not drawn)	2.67
CC1(C)CC(=O)C(C(Cc2ccccc2)C2=C(O)CC(C)(C)CC2=O)=C(O)C1	< 1

Series 2 — observed: enzyme activity; action: inhibitor; tested at: 0.5 µM; reference: control
Target: Leucine-rich repeat serine/threonine-protein kinase 2 (LRRK2, Homo sapiens, UniProt Q5S007)
Sequence of UniProt Q5S007 (whole entry, looked up): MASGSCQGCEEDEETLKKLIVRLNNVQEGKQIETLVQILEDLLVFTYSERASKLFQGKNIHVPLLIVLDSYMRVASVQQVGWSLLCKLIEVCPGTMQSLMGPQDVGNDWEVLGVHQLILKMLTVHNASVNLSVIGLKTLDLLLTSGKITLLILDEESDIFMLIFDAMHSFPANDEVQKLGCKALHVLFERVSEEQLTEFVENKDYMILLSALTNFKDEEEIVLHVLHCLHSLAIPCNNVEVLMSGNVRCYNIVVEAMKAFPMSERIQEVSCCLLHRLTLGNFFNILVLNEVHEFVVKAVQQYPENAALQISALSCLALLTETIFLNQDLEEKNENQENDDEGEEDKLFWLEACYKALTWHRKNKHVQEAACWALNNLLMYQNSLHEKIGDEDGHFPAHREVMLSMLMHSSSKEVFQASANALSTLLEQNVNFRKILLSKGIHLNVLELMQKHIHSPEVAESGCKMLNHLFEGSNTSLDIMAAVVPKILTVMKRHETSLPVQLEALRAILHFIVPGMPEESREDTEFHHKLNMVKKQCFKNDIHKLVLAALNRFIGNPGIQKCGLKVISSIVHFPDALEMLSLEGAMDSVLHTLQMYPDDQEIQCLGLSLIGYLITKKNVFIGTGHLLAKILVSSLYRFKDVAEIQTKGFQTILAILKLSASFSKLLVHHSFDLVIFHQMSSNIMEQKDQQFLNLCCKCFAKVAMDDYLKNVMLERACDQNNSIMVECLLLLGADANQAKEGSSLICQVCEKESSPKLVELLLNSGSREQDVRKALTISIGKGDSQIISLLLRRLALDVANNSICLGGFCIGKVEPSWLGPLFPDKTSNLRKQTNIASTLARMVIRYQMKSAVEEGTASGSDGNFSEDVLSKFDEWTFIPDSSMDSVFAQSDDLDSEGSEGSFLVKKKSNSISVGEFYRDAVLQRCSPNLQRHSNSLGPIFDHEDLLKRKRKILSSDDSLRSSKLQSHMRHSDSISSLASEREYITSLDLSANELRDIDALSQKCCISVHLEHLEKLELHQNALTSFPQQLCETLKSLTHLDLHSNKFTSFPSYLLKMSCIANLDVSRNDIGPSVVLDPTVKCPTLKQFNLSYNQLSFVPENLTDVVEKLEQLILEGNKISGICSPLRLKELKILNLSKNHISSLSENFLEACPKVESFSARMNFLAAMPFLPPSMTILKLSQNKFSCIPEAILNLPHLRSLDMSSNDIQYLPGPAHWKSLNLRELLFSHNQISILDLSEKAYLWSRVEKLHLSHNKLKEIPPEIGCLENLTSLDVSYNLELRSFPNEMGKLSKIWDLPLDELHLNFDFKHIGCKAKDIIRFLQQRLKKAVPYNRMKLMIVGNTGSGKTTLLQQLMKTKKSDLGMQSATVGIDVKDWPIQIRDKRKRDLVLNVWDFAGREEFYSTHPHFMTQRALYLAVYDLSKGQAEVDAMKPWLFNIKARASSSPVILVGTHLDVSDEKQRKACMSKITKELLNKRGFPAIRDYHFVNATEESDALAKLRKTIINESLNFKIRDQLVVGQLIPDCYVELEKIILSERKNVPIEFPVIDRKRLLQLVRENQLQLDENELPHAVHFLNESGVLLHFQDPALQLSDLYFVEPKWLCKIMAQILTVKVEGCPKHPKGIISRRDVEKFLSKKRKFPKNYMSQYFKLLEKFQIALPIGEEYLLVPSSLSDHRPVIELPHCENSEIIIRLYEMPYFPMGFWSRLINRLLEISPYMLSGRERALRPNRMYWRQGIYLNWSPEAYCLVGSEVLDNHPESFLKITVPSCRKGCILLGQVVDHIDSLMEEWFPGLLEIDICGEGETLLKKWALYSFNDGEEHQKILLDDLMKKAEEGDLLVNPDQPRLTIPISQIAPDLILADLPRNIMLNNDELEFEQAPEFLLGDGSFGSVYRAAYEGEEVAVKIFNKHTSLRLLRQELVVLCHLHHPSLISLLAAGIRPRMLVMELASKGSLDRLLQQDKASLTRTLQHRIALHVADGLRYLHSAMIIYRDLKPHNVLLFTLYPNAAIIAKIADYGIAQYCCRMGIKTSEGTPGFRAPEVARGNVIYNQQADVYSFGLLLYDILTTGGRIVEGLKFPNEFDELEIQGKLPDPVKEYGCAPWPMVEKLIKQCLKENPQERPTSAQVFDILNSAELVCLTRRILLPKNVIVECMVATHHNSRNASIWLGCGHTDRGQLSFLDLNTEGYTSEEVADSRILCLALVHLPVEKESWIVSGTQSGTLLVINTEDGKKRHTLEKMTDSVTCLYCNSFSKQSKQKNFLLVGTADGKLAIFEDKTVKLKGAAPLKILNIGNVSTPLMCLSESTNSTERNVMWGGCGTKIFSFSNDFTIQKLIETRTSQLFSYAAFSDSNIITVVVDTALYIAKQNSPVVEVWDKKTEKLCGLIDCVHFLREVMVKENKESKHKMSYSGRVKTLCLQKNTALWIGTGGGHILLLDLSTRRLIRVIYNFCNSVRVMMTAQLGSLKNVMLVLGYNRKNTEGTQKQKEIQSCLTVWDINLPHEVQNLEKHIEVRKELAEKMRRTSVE
SMILES	remaining activity
COc1ccc(C(=O)Nc2sc3c(c2C(N)=O)CCCC3)cc1OC	87.4%
O=C(CCCc1ccc(-c2ccccc2F)cc1)Nc1ccc(O)cc1	98%
COc1ccc(CNC(=O)Nc2ncc([N+](=O)[O-])s2)cc1	87.7%
CC(C)[C@H](CO)Nc1nc(Nc2cc(N)cc(Cl)c2)c2ncn(C(C)C)c2n1	101%
Nc1[nH]nc2nc3ccccc3nc12	90.5%
O=C(O)c1ccc2c3c1cccc3c(=O)n1c3ccccc3nc21	70.1%
CCOC(=O)c1c(C)[nH]c(/C=C2\C(=O)Nc3ccccc32)c1C	28.6%
Nc1ccc2ncnc(NCCc3ccc(Oc4ccccc4)cc3)c2c1	98.5%
Nc1ncnc2n[nH]c(Nc3ccc(F)cc3)c12	89.6%
Oc1ccc(-c2nc(-c3ccncc3)c(-c3ccc(F)cc3)[nH]2)cc1	95.8%
Cc1cccc(-c2[nH]c(C(C)(C)C)nc2-c2ccc3c(c2)OCO3)n1	103%
Cn1sc(=O)n(Cc2ccccc2)c1=O	91.9%
O=c1c2ccccc2[nH]c(=S)n1CCN1CCC(=C(c2ccc(F)cc2)c2ccc(F)cc2)CC1	93.9%
COc1cc2nccc(Oc3ccc(NC(=S)NC(=O)c4ccccc4C)cc3)c2cc1OC	94.4%

Series 3 — observed: cell-free assay; technique: competition with immobilised ligand; tested at: 1 µM
Structure (SMILES): CN([C@@H]1CCc2c(CC(=O)O)c3cc(S(C)(=O)=O)ccc3n2C1)S(=O)(=O)c1ccc(F)cc1
target	remaining binding [%]
ANKK1 (Homo sapiens, UniProt Q8NFD2)	96
EPHB6 (Homo sapiens, UniProt O15197)	82
EGFR (Homo sapiens, UniProt P00533, G719C)	98
RIPK2 (Homo sapiens, UniProt O43353)	100

Series 4 — cell line: HaCaT; tested at: 100 µM; time: 36 h
SMILES	viability [%]
O=C(O)[C@H](CC(=O)N1C[C@H]2CCCC[C@H]2C1)Cc1ccccc1	99.1
CC(C)[C@H](N)C(=O)OCCOCn1cnc2c(=O)[nH]c(N)nc21	91.2
CO/N=C1\C[C@]2(C[C@@H]3C[C@@H](C/C=C(\C)C[C@@H](C)/C=C/C=C4\CO[C@@H]5[C@H](O)C(C)=C[C@@H](C(=O)O3)[C@]45O)O2)O[C@H](/C(C)=C/C(C)C)[C@H]1C	11
CCCCN(CCCC)CC(O)c1cc(Cl)cc2c1-c1ccc(Cl)cc1/C2=C/c1ccc(Cl)cc1 (stereo not drawn)	9.05
COc1ccc([C@@H]2CC(=O)c3c(O)cc(O[C@@H]4O[C@H](CO[C@@H]5O[C@@H](C)[C@H](O)[C@@H](O)[C@H]5O)[C@@H](O)[C@H](O)[C@H]4O)cc3O2)cc1O	83.3

Mixed results
SMILES	test system	setting	measurement	value
CC(C)n1cnc(-c2ccc(F)cc2)c1-c1ncc(C(=O)Nc2ccc(N3CCN(C)CC3)cc2)[nH]1	IPF patients	60 mg once daily, adverse event	cardiac failure incidence	0%
CN(N=O)C(=O)N[C@@H]1[C@@H](O)[C@H](O)[C@@H](CO)O[C@@H]1O	mice, STZ diabetic neuropathy	dose not given, 14 days after STZ	blood glucose	527 mg/dL and 590 mg/dL and 408 mg/dL and 534 mg/dL and 455 mg/dL
